{"data": "Experimental data pooled from the literature", "note": "Parts stem from different laboratories: compare values within a part only. Substitutions count along the parent as printed.", "chain of UniProt P36896 (whole entry, looked up)": "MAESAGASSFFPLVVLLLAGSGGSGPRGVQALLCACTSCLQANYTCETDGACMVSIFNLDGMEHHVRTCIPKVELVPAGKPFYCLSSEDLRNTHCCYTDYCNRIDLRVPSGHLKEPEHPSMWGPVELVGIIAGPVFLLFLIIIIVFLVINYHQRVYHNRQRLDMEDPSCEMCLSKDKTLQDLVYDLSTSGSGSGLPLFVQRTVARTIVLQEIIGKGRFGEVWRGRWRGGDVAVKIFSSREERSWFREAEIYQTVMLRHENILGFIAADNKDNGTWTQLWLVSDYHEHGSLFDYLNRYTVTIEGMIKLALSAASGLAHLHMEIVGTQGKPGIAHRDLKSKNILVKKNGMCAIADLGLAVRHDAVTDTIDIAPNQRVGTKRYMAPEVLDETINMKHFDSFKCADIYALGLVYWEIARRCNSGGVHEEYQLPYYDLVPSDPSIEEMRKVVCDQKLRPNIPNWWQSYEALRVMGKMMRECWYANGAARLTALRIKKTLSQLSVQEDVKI"}
{"data": "Set 1", "target": "PABPC1L2, full length, GST fusion (mouse, UniProt A0ABA7IW68)", "technique": "RNAcompete", "form": "RNA", "matrix": "in vitro", "tested at": "20 nM", "notes": "7-mer, probes averaged, single round", "relative to": "mean of 7-mers", "reading": "higher = stronger binding", "Construct (chain)": "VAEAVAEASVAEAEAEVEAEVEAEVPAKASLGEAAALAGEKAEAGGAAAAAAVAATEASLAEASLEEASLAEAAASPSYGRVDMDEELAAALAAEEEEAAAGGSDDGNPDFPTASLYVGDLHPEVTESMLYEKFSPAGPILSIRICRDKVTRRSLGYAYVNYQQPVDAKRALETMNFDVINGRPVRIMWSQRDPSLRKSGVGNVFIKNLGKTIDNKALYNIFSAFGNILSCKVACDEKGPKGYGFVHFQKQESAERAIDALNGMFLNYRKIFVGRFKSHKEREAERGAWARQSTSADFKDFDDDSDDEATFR"}
{"Oligonucleotide": "GGCUAGA", "7-mer Z-score": 0.173}
{"Oligonucleotide": "CCACACU", "7-mer Z-score": -0.296}
{"Oligonucleotide": "GUCAUAC", "7-mer Z-score": -0.162}
{"Oligonucleotide": "AGUCGUU", "7-mer Z-score": -0.508}
{"Oligonucleotide": "GAGGAGG", "7-mer Z-score": 0.189}
{"Oligonucleotide": "UCGCGCA", "7-mer Z-score": -0.34}
{"Oligonucleotide": "UUUGCUU", "7-mer Z-score": -0.441}
{"Oligonucleotide": "UACUCCG", "7-mer Z-score": -0.191}
{"data": "Set 2", "Change": "V121R", "target": "ABI1, truncated, D143A, DHFR fusion (Arabidopsis thaliana)", "technique": "DHFR PCA, deep sequencing", "matrix": "yeast", "notes": "methotrexate growth selection, single substitutions", "relative to": "wild-type fitted maximum", "reading": "higher = stronger binding", "starting sequence": "PYL1, truncated, DHFR fusion (Arabidopsis thaliana); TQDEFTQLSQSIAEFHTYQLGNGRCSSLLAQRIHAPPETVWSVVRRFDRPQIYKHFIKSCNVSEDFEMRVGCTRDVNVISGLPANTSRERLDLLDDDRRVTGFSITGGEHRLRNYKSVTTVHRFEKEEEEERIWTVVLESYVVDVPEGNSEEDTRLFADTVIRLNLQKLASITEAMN; partner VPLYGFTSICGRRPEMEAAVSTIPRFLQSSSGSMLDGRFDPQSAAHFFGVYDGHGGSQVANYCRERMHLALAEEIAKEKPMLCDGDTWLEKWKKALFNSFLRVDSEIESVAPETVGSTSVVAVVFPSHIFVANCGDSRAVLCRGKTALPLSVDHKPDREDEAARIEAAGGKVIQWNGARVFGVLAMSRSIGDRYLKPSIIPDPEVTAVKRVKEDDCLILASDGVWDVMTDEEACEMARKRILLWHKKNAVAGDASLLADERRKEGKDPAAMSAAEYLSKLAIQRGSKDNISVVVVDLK"}
{"together with": "(+)-ABA 0.032 µM", "relative binding score [%]": 0.165}
{"together with": "(+)-ABA 2500 µM", "relative binding score [%]": -2.82}
{"together with": "(+)-ABA 0 µM", "relative binding score [%]": 3.72}
{"together with": "(+)-ABA 0.0091 µM", "relative binding score [%]": 5.37}
{"together with": "(+)-ABA 710 µM", "relative binding score [%]": -11.6}
{"together with": "(+)-ABA 0.11 µM", "relative binding score [%]": -1.7}
{"data": "Set 3", "target": "TAR DNA-binding protein 43, full length, His tag (TARDBP, Homo sapiens, UniProt Q13148, residues 1-414)", "technique": "RNA Bind-n-Seq", "form": "RNA", "matrix": "in vitro", "tested at": "20 nM", "notes": "6-mer, flanks averaged, single round", "together with": "150 mM KCl", "relative to": "input library", "reading": "higher = stronger binding"}
{"Oligonucleotide": "AUAACU", "6-mer enrichment (R)": 0.668}
{"Oligonucleotide": "UUAUAC", "6-mer enrichment (R)": 0.571}
{"Oligonucleotide": "UGGGAC", "6-mer enrichment (R)": 1.95}
{"Oligonucleotide": "AAGGAG", "6-mer enrichment (R)": 1.58}
{"Oligonucleotide": "CACUGG", "6-mer enrichment (R)": 0.99}
{"Oligonucleotide": "GCUCAU", "6-mer enrichment (R)": 0.624}
{"Oligonucleotide": "CCAGAU", "6-mer enrichment (R)": 0.635}
{"Oligonucleotide": "GUAUUU", "6-mer enrichment (R)": 0.687}
{"data": "Further values, each from its own experiment"}
{"SMILES": "CNC(=O)Nc1ccc2c(c1)[C@@]1(CC2)OC(=O)N(CC(=O)N(Cc2ccc(F)cc2)[C@@H](C)C(F)(F)F)C1=O", "target": "Activin receptor type-1B (ACVR1B, Homo sapiens, UniProt P36896)", "read-out": "cell-free assay", "technique": "competition with immobilised ligand", "tested at": "1 µM", "endpoint": "remaining binding", "value": "100%"}
{"note": "A few entries again (set 3):"}
{"Oligonucleotide": "AAGGAG", "6-mer enrichment (R)": 1.58}
{"Oligonucleotide": "CACUGG", "6-mer enrichment (R)": 0.99}
{"Oligonucleotide": "GCUCAU", "6-mer enrichment (R)": 0.624}
